Experimental data of several laboratories.
Each line is one published result; not all experiments were run side by side. Numbers after ± are the reported error.

`O=C1CCc2ccc(OCCCCN3CCN(c4cccc(Cl)c4Cl)CC3)cc2N1` has a Tmax of 2 ± 1.5 h (healthy Japanese men, CYP2D6 EM, plasma; oral, 3 mg aripiprazole single, with: fluvoxamine 100 mg/day).
For `CCOc1ccc(Cc2cc([C@@H]3S[C@H](CO)[C@@H](O)[C@H](O)[C@H]3O)c(OC)cc2C)cc1`, the Tmax was 0.5 h (Japanese type 2 diabetes patients, plasma; oral, 5 mg single dose, eGFR 60-89 mL/min/1.73 m^2, median).
With `COc1ccc2c3c1O[C@H]1C[C@@H](OC(=O)c4ccccc4)C=C[C@@]31CCN(C)C2` the Tmax was 0.48 h (healthy young men, plasma; intranasal, 11 mg, single dose).
The Tmax of `CC(C)=CCC[C@](C)(O[C@@H]1O[C@H](CO)[C@@H](O)[C@H](O)[C@H]1O)[C@H]1CC[C@]2(C)[C@@H]1[C@H](O)C[C@@H]1[C@@]3(C)CC[C@H](O[C@@H]4O[C@H](CO)[C@@H](O)[C@H](O)[C@H]4O)C(C)(C)[C@@H]3CC[C@]12C` is reported as 6.85 ± 3.18 h (LC-MS/MS; healthy male volunteers, serum; oral, 3 g red ginseng).
`CC1=C2C[C@H]3[C@@H](CC[C@@H]4C[C@H](NS(C)(=O)=O)CC[C@@]43C)[C@@H]2CC[C@@]2(C1)O[C@@H]1C[C@H](C)CN[C@H]1[C@H]2C` has a Tmax of 5 h (patients, plasma; oral, 40 mg single, day -7, cycle 1).
With `Cc1ccc(NC(=O)c2ccc(CN3CCN(C)CC3)cc2)cc1Nc1nccc(-c2cncc(-c3oncc3C)c2)n1` the Tmax was 4.66 h (Parkinson's disease patients, plasma; oral, 50.0 mg once daily, day 1, 7-day dosing, mean).
For `CS(=O)(=O)n1cc2c(n1)CN([C@H]1CO[C@H](c3cc(F)ccc3F)[C@@H](N)C1)C2`, the Tmax was 1 h (healthy Japanese men, plasma; oral, 50 mg once weekly, day 15).
The Tmax of `CN[C@H](CC(C)C)C(=O)N[C@H]1C(=O)N[C@@H](CC(N)=O)C(=O)N[C@H]2C(=O)N[C@H]3C(=O)N[C@H](C(=O)N[C@H](C(=O)O)c4cc(O)cc(O)c4-c4cc3ccc4O)[C@H](O)c3ccc(c(Cl)c3)Oc3cc2cc(c3O[C@@H]2O[C@H](CO)[C@@H](O)[C@H](O)[C@H]2O[C@H]2C[C@](C)(N)[C@H](O)[C@H](C)O2)Oc2ccc(cc2Cl)[C@H]1O` is reported as 4.5 h (microdialysis; pig, intervertebral disc; intravenous infusion, 1000 mg, infusion 100 min).
`NC(=O)c1cnc2[nH]ccc2c1N[C@@H]1[C@@H]2CC3C[C@H]1C[C@@](O)(C3)C2` has a Tmax of 2 h (healthy Japanese men, plasma; oral, 200 mg, single dose fasted median).
With `COc1cc(OC)c(/C=C/S(=O)(=O)Cc2ccc(OC)c(NCC(=O)O)c2)c(OC)c1` the Tmax was 1.25 ± 0.35 h (cancer patients, phase I, plasma; oral, 700 mg twice daily, day 21 cycle 1).
For `Cc1ccc(Sc2ccccc2N2CCNCC2)c(C)c1`, the Tmax was 11.8 h (healthy men, plasma; oral, 5 mg once daily, fed, day 1).

A few entries again:
The Tmax of `CN[C@H](CC(C)C)C(=O)N[C@H]1C(=O)N[C@@H](CC(N)=O)C(=O)N[C@H]2C(=O)N[C@H]3C(=O)N[C@H](C(=O)N[C@H](C(=O)O)c4cc(O)cc(O)c4-c4cc3ccc4O)[C@H](O)c3ccc(c(Cl)c3)Oc3cc2cc(c3O[C@@H]2O[C@H](CO)[C@@H](O)[C@H](O)[C@H]2O[C@H]2C[C@](C)(N)[C@H](O)[C@H](C)O2)Oc2ccc(cc2Cl)[C@H]1O` is reported as 4.5 h (microdialysis; pig, intervertebral disc; intravenous infusion, 1000 mg, infusion 100 min).
